Results collected from several papers.
A part holds a random share of what one study measured. Substitutions count along the parent as printed.

Series 1
Target: Max dimerization protein 1, bHLH-zipper, MAX partner unstated (MXD1, Homo sapiens, UniProt Q05195, residues 56-136)
Method: protein-binding microarray
Form: double-stranded DNA, one strand shown
Sample: in vitro
Tested at: not given
Notes: k-mer, scored over probes, only values ≥0.25
Direction: higher = stronger binding
Target sequence (chain): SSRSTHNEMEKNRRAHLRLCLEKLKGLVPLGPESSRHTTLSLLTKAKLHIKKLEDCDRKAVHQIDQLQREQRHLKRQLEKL
Sequence | E-score
CGCACGCG | 0.398
ACATGTAT | 0.361
ATGTCGAC | 0.251
CACGCGTG | 0.466
CCACGAGA | 0.338
GCCCCTCC | 0.362
TACCACGA | 0.287
ATGGTGTG | 0.285

Series 2
Target: CREB3L3, bZIP domain (human)
Method: DHFR protein complementation
Sample: yeast
Notes: single substitutions, most at no-binding floor
Reference: wild-type JUN-FOS pair
Direction: higher = stronger binding
Parent: JUN, bZIP domain (human); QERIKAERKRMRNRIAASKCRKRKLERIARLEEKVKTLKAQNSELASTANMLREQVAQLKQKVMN; partner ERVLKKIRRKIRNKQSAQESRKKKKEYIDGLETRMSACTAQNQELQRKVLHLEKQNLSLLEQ
Substitution | binding fitness [natural log]
A40H | -1.53
A29P | -1.56
N42L | -1.49
K34W | -1.41
A46Y | -1.18
E54L | -1.48
A49Q | -1.36
A49L | -1.43

Series 3
Target: CCNF, cyclin fold, Cln2 fusion (human)
Method: yeast growth competition, sequencing
Sample: yeast
Notes: strong parent motif
Reference: not given
Direction: higher = stronger binding
Parent: viral docking peptide; KGVKRKLFAEDSS
Substitution | normalised enrichment score
R5H | 0.914
L7Q | 0.271
R5P | 0.384
K4Q | 8.42
E10W | 7.58
K4E | 4.45

Series 4
Target: tungstate, free oxyanion
Method: microfluidic competitive inhibition
Sample: in vitro, cell-free expressed
Tested at: not given
Notes: derived from inhibition constants, unchanged parent 2230 nM
Direction: lower = stronger binding
Parent: PafA, mature enzyme, eGFP fusion (Elizabethkingia meningoseptica, UniProt Q9KJX5); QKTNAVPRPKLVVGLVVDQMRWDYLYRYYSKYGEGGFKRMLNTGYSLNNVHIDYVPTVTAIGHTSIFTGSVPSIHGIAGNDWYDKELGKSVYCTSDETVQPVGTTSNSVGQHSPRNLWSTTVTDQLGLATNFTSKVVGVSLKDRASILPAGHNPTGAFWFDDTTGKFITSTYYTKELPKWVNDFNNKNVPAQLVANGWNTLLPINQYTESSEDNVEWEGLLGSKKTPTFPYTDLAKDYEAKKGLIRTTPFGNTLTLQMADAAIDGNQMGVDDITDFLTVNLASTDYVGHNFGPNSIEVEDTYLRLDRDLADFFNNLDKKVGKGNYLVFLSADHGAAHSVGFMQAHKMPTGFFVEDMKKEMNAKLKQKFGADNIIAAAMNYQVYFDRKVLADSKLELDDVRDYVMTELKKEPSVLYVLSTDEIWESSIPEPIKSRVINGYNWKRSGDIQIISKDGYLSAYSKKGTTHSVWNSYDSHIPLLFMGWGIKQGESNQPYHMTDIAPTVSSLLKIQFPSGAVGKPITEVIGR
Substitution | oxyanion analog dissociation constant
G14V | 2.52 µM
T104G | 3.29 µM
I476V | 2.27 µM
T464V | 3.42 µM
S457V | 2.81 µM
K461G | 2.1 µM

For quick reference, copied from above (series 4):
Substitution | oxyanion analog dissociation constant
I476V | 2.27 µM
T464V | 3.42 µM
S457V | 2.81 µM
